Experimental data of several laboratories.
Compare with care: the assays were run in different laboratories. ± marks the error that the study gave. Ends that are not written are not given here.

| Substance | test | test system | setting | scale | quantity | value |
| --- | --- | --- | --- | --- | --- | --- |
| CC(C)(Sc1ccncc1-c1ccc(C#N)c2ccccc12)C(=O)O | – | male gout patients, urine | 300 mg, 0 to 24 h, added: verinurad 10 mg alone or combined | relative to: baseline | fractional uric acid excretion | 77.4% |
| insulin aspart | – | obese type 2 diabetes patients | subcutaneous, 0.2 U/kg, before standard meal | – | maximum glucose excursion | 40 mg/dL |
| Polymyxin B | – | human whole blood | 125 ng/mL, 4 h, 37 °C, added: E. coli LPS 0.5 ng/mL | relative to: LPS without compound | TNF-α release | 5.2 ± 2.3% |
| CC1CCC(C(C)C)C(O)C1 (stereo not shown) | – | Wistar rat | epidermal, 10 g of 0.5% ointment | – | preferred ambient temperature | ~27 °C |
| Neuropeptide Y | – | Nep−/− mouse, bile duct ligation, liver | dose not given | relative to: control injection | Col1a1 mRNA level | decreased |
| COc1ccc(-n2nc(C(N)=O)c3c2C(=O)N(c2ccc(N4CCCCC4=O)cc2)CC3)cc1 | functional antithrombin | human, plasma | dose not given, drug plasma level above 100 ng/mL | relative to: pretreatment samples | antithrombin activity increase | 18% |
| CC(=O)Nc1cccc(OCc2nnc(SCc3ccccc3Cl)o2)c1 | forced swimming test | mice | 40 mg/kg, 0.5 h | relative to: control | immobility duration decrease | 53.5% |
| O=C(/C=C(/C=C/c1cccnc1)NCCO)/C=C/c1cccnc1 | DPPH scavenging | – | – | – | EC50 | > 200 µM |
| CC(=O)Nc1cccc(OCc2nnc(SCc3ccccc3C(F)(F)F)o2)c1 | forced swimming test | mice | 40 mg/kg, 0.5 h | relative to: control | immobility duration decrease | 44.4% |
| Cc1nnc(-c2cc(C(=O)N3CCC(c4ccc(C#N)cc4)CC3)c(C)cc2C2CCC2)[nH]1 | – | patients with advanced solid tumours | dose not given, monotherapy RECIST | – | disease control rate | 42% |
| O=C1CSC(NN=C2c3ccccc3-c3nc4cc(F)ccc4nc32)=N1 | – | mouse, STZ-induced diabetes | oral, 25 mg/kg, day 3 | – | blood glucose | 478 ± 44.7 mg/dL |
| NC(=O)[C@H](CCC(=O)O)NC(=O)[C@H](CCC(=O)O)NC(=O)[C@H](Cc1cc(-c2ccc(-c3cccc(Cl)c3)cc2)no1)CP(=O)(O)c1ccc(Br)cc1 | measured: PCNA | high-fat-fed apoE-knockout mice, brachiocephalic plaque | dose not given | – | proliferating macrophages | 23.7 ± 4% |
| CC(C)C[C@H](NC(=O)[C@H](CC(C)C)NC(=O)[C@H](CCCNC(=N)N)NC(=O)[C@H](CO)NC(=O)[C@H](CC(C)C)NC(=O)[C@H](C)NC(=O)[C@H](CCCNC(=N)N)NC(=O)[C@H](Cc1ccccc1)NC(=O)[C@H](CC(C)C)NC(=O)[C@H](C)NC(=O)CNC(=O)[C@H](CC(C)C)NC(=O)[C@@H](N)Cc1ccccc1)C(=O)O | – | DPPC/cholesterol/DPPS monolayer | 10 µM | – | surface tension change | 13 mN/m |
| insulin lispro | euglycemic clamp | obese type 2 diabetic patients | subcutaneous, 30 units, 8 h | – | maximum glucose infusion rate | 2 mg/kg/min |
| C=C1C2CCC(C2)C1(C)C (stereo not shown) | two-choice feeding trial | Brachylagus idahoensis | 1% dry weight in diet, 72 h, added: monoterpene mixture 1% dry weight | – | proportion of food consumed | 52 ± 0.11% |
| CCCCCCCCCCCCCCCC(=O)NCCCC[C@H](NC(=O)[C@H](CCC(=O)O)NC(=O)[C@H](CCC(=O)O)NC(=O)[C@H](Cc1ccc(O)cc1)NC(=O)[C@H](CCC(=O)O)NC(=O)CCCCCNC(=S)Nc1ccc2c(c1)C(=O)OC21c2ccc(O)cc2Oc2cc(O)ccc21)C(=O)N[C@@H](Cc1ccc(O)cc1)C(=O)N[C@@H](CCC(=O)O)C(=O)NCC(=O)NCC(=O)NCC(=O)NCC(=O)N[C@@H](CO)C(=O)NCC(=O)NCC(=O)NCC(=O)NCC(=O)N[C@@H](CO)C(=O)N[C@@H](Cc1ccccc1)C(=O)N[C@@H](CC(N)=O)C(=O)N1CCC[C@H]1C(=O)N[C@@H](CCCNC(=N)N)C(=O)N[C@@H](Cc1c[nH]cn1)C(=O)NC(C)(C)C(=O)N[C@@H](CCC(=O)O)C(=O)NCC(=O)N[C@H](C(=O)N[C@@H](Cc1ccccc1)C(=O)N[C@H](C(=O)N[C@@H](CO)C(=O)N[C@@H](CC(=O)O)C(=O)N[C@H](C(=O)N[C@@H](CO)C(=O)N[C@@H](CO)C(=O)N[C@@H](Cc1ccc(O)cc1)C(=O)N[C@@H](CC(C)C)C(=O)N[C@@H](CCC(=O)O)C(=O)NCC(=O)N[C@@H](CCC(N)=O)C(=O)N[C@@H](C)C(=O)N[C@@H](C)C(=O)N[C@@H](CCCCN)C(=O)N[C@@H](CCC(=O)O)C(=O)N[C@@H](Cc1ccccc1)C(=O)N[C@H](C(=O)N[C@@H](C)C(=O)N[C@@H](Cc1c[nH]c2ccccc12)C(=O)N[C@@H](CC(C)C)C(=O)N[C@H](C(=O)N[C@@H](CCCCN)C(=O)NCC(=O)N[C@@H](CCCNC(=N)N)C(=O)NCC(=O)O)C(C)C)[C@@H](C)CC)C(C)C)[C@@H](C)O)[C@@H](C)O | – | db/db mouse | subcutaneous, 90 nmol/kg, 0.5 h before glucose, AUC 0-120 min, added: oral glucose 2.0 g/kg | relative to: saline | glucose reduction | 57.8% |

| Substance | test | test system | setting | scale | quantity | value |
| --- | --- | --- | --- | --- | --- | --- |
| CCC1=C[C@@H]2CN(C1)Cc1c([nH]c3ccccc13)[C@@](C(=O)OC)(c1cc3c(cc1OC)N(C)[C@H]1[C@@](O)(C(=O)OC)[C@H](OC(C)=O)[C@]4(CC)C=CCN5CC[C@]31[C@@H]54)C2 | overall survival | mice, HT-29 xenograft | – | relative to: vehicle | minimum effective dose | 45 mg/m² |
| C[C@]12C=CC(=O)C=C1CC[C@H]1[C@@H]3C[C@@H](O)[C@](O)(C(=O)CO)[C@@]3(C)C[C@H](O)[C@@]12F | histology | rat, MIA-induced osteoarthritis, tibia | intra-articular, 0.06 mg on 5, 12, 19 days after MIA, day 26 | relative to: vehicle | bone resorption reduction | 34 to 39% |
| CC(C)OC(=O)C(C)(C)Oc1ccc(C(=O)c2ccc(Cl)cc2)cc1 | hepatic PPAR target gene induction | Sprague Dawley rats, diet-induced dyslipidemia, liver | added: ACC inhibitor | – | dose | ≥ 5 mg/kg |
| CCOC(=O)c1sc(N=C2c3ccccc3-c3nc4cc(F)ccc4nc32)nc1C | – | mouse, STZ-induced diabetes | oral, 25 mg/kg, day 3 | – | blood glucose | 332 ± 18.4 mg/dL |
| CC(C)C[C@H](NC(=O)[C@H](CO)NC(=O)[C@H](CCCNC(=N)N)NC(=O)[C@H](CC(=O)O)NC(=O)[C@H](CCC(=O)O)NC(=O)[C@H](C)NC(=O)[C@@H]1CCCN1C(=O)[C@H](C)NC(=O)[C@H](CCC(=O)O)NC(=O)[C@@H]1CCCN1C(=O)[C@@H]1CCCN1)C(N)=O | HPLC-EC | rat F344, unilateral 6-OHDA lesion, ipsilateral striatum | intranasal, 300 µg daily, 5 weeks post lesion | – | dopamine level | 201 ± 171 ng/g |
| Cc1ccc(CSc2nnc(COc3ccc4c(c3)NC(=O)CC4)o2)cc1 | forced swimming test | mice | 40 mg/kg, 0.5 h | relative to: control | immobility duration decrease | 35% |
| KCNTATCATQRLANFLVHSSNNFGPILPPTNVGSNTY (Pramlintide; not fully specified (C-terminus, bridges); cysteine pairing not given here; sequence looked up) | – | peptide, obese or overweight humans | subcutaneous, 360 µg twice daily, week 20, 20 weeks after 4-week lead-in with diet, LS mean | relative to: enrollment | body weight change | -8.4 ± 0.9% |
| Ac-LRKLRKRLLRDWLKAFYDKVAEKLKEAF-NH2 (N-acetyl, C-amide) | ELISA | peptide, APP/PS1ΔE9 mice, TBS-soluble brain homogenate | retro-orbital, 50 µg/mouse 3 times weekly, 6 weeks | relative to: saline | ApoE level | increased |
| COc1ccc2c(c1)c(CC(=O)O)c(C)n2C(=O)c1ccc(Cl)cc1 | multiplex bead immunoassay, measured: IL-10 | CD-1 mice, serum | ip, 20 mg/kg, three-injection regimen, added: LPS 3 mg/kg | – | cytokine level | 48.3 ± 13.3 pg/mL |
| CC[C@H](C)[C@H](NC(=O)[C@H](Cc1ccc(O)cc1)NC(=O)[C@H](CCC(=O)O)NC(=O)[C@H](CCCNC(=N)N)NC(=O)[C@@H](NC(=O)[C@H](Cc1c[nH]c2ccccc12)NC(=O)[C@H](CCCCN)NC(=O)[C@H](CCCCN)NC(=O)[C@H](CCC(=O)O)NC(=O)CNC(=O)CON=C(C)CCCC(=O)NCCCC[C@@H]1NC(=O)[C@H](CCC(=O)O)NC(=O)[C@H](CCCCNC(=O)CCCC(C)=NOCC(=O)NCC(=O)N[C@@H](CCC(=O)O)C(=O)N[C@@H](CCCCN)C(=O)N[C@@H](CCCCN)C(=O)N[C@@H](Cc2c[nH]c3ccccc23)C(=O)N[C@H](C(=O)N[C@@H](CCCNC(=N)N)C(=O)N[C@@H](CCC(=O)O)C(=O)N[C@@H](Cc2ccc(O)cc2)C(=O)N[C@H](C(=O)N[C@@H](CC(N)=O)C(=O)N[C@@H](CO)C(=O)N[C@@H](CC(C)C)C(=O)N[C@@H](CCC(=O)O)C(=O)N[C@@H](CCSC)C(=O)N[C@@H](CO)C(=O)O)[C@@H](C)CC)C(C)C)NC(=O)[C@@H]2CCCN2C(=O)[C@H](CSCC(N)=O)NC(=O)[C@H](CCCCNC(=O)CCCC(C)=NOCC(=O)NCC(=O)N[C@@H](CCC(=O)O)C(=O)N[C@@H](CCCCN)C(=O)N[C@@H](CCCCN)C(=O)N[C@@H](Cc2c[nH]c3ccccc23)C(=O)N[C@H](C(=O)N[C@@H](CCCNC(=N)N)C(=O)N[C@@H](CCC(=O)O)C(=O)N[C@@H](Cc2ccc(O)cc2)C(=O)N[C@H](C(=O)N[C@@H](CC(N)=O)C(=O)N[C@@H](CO)C(=O)N[C@@H](CC(C)C)C(=O)N[C@@H](CCC(=O)O)C(=O)N[C@@H](CCSC)C(=O)N[C@@H](CO)C(=O)O)[C@@H](C)CC)C(C)C)NC(=O)[C@H](CCCCN)NC(=O)[C@H](CCCCNC(=O)CCCC(C)=NOCC(=O)NCC(=O)N[C@@H](CCC(=O)O)C(=O)N[C@@H](CCCCN)C(=O)N[C@@H](CCCCN)C(=O)N[C@@H](Cc2c[nH]c3ccccc23)C(=O)N[C@H](C(=O)N[C@@H](CCCNC(=N)N)C(=O)N[C@@H](CCC(=O)O)C(=O)N[C@@H](Cc2ccc(O)cc2)C(=O)N[C@H](C(=O)N[C@@H](CC(N)=O)C(=O)N[C@@H](CO)C(=O)N[C@@H](CC(C)C)C(=O)N[C@@H](CCC(=O)O)C(=O)N[C@@H](CCSC)C(=O)N[C@@H](CO)C(=O)O)[C@@H](C)CC)C(C)C)NC(=O)[C@@H]2CCCN2C(=O)CNC1=O)C(C)C)C(=O)N[C@@H](CC(N)=O)C(=O)N[C@@H](CO)C(=O)N[C@@H](CC(C)C)C(=O)N[C@@H](CCC(=O)O)C(=O)N[C@@H](CCSC)C(=O)N[C@@H](CO)C(=O)O | multiple electrode aggregometry | human blood | 5 µM, 1 h, added: cangrelor 0.34 µg/mL, CXCL12 with or without collagen | relative to: cangrelor alone | platelet aggregation | increased |
| CO[C@@H]1[C@H](N(C)C(=O)c2ccccc2)C[C@H]2O[C@]1(C)n1c3ccccc3c3c4c(c5c6ccccc6n2c5c31)C(=O)NC4 | – | newly diagnosed FLT3-wild-type AML patients | oral, 50 mg twice daily, added: daunorubicin/cytarabine induction chemotherapy | relative to: CR patients | CR after first induction cycle | 75% |
| VCTGSC | inhibitor, light transmission aggregometry | peptide, human platelet-rich plasma | 500 µg/mL, added: ADP 4 µM | – | platelet aggregation | inactive |
| CS/C(S)=N/CCCC[S+](C)[O-] (racemic) | RT-PCR, measured: Gpx5 | rat, liver | oral gavage, 200 mg/kg, 96 h, dosed for four days | relative to: vehicle | mRNA fold change | 0.528 |
| CCCC(CCC)C(=O)O | – | Scn1a+/- mouse, hyperthermia-primed | oral in chow, dose not given | relative to: untreated | GTCS with tonic hindlimb extension | decreased |
| CC[C@@H]1CN(C(=O)NCC(F)(F)F)C[C@@H]1c1cnc2cnc3[nH]ccc3n12 | IGA response | human, atopic dermatitis, plasma average concentration | week 16 | – | EC50 | 0.0128 µg/mL |

Some of these lines once more:
| Substance | test | test system | setting | scale | quantity | value |
| --- | --- | --- | --- | --- | --- | --- |
| CS/C(S)=N/CCCC[S+](C)[O-] (racemic) | RT-PCR, measured: Gpx5 | rat, liver | oral gavage, 200 mg/kg, 96 h, dosed for four days | relative to: vehicle | mRNA fold change | 0.528 |
| C=C1C2CCC(C2)C1(C)C (stereo not shown) | two-choice feeding trial | Brachylagus idahoensis | 1% dry weight in diet, 72 h, added: monoterpene mixture 1% dry weight | – | proportion of food consumed | 52 ± 0.11% |
| insulin lispro | euglycemic clamp | obese type 2 diabetic patients | subcutaneous, 30 units, 8 h | – | maximum glucose infusion rate | 2 mg/kg/min |
| Cc1nnc(-c2cc(C(=O)N3CCC(c4ccc(C#N)cc4)CC3)c(C)cc2C2CCC2)[nH]1 | – | patients with advanced solid tumours | dose not given, monotherapy RECIST | – | disease control rate | 42% |
| CC(C)C[C@H](NC(=O)[C@H](CO)NC(=O)[C@H](CCCNC(=N)N)NC(=O)[C@H](CC(=O)O)NC(=O)[C@H](CCC(=O)O)NC(=O)[C@H](C)NC(=O)[C@@H]1CCCN1C(=O)[C@H](C)NC(=O)[C@H](CCC(=O)O)NC(=O)[C@@H]1CCCN1C(=O)[C@@H]1CCCN1)C(N)=O | HPLC-EC | rat F344, unilateral 6-OHDA lesion, ipsilateral striatum | intranasal, 300 µg daily, 5 weeks post lesion | – | dopamine level | 201 ± 171 ng/g |
